Assay results gathered from unrelated publications.
Protocols differ between the studies behind these lines. Several values in a cell are separate wells, animals, samples, runs or records. ± gives the spread as reported.
TDP1: Tyrosyl-DNA phosphodiesterase 1 (TDP1, Homo sapiens, UniProt Q9NUW8)
Chain of UniProt Q9NUW8 (whole entry, looked up): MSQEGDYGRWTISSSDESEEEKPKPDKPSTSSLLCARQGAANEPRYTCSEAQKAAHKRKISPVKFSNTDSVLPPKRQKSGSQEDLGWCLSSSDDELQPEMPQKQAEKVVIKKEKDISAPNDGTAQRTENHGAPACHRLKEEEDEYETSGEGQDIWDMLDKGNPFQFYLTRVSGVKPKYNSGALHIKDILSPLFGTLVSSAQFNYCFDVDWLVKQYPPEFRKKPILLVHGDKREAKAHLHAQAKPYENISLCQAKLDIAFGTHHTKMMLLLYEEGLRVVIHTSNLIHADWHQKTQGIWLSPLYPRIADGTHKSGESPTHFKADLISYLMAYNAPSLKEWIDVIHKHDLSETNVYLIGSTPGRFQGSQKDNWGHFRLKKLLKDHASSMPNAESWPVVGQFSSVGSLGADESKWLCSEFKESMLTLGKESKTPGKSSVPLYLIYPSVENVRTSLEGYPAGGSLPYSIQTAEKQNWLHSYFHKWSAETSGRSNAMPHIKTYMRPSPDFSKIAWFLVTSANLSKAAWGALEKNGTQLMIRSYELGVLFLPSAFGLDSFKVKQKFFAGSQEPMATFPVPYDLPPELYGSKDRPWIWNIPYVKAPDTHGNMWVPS

SMILES | target | test | system | conditions | scale | endpoint | result
COc1cccc2cc(C=NOCc3ccc(-c4nc5cc(-c6ccccc6)ccn5c4Nc4ccc(C(=O)O)cc4)cc3)oc12 | TDP1 | enzyme activity, inhibitor | – | 100 µM, unpurified compound | – | inhibition | 64.5%
C=CC(=O)Nc1cccc(Cn2ncc3cnc(Nc4cnn(CCOC)c4)nc32)c1 | SRPK3 human | binding, KINOMEscan | – | 100 nM | lower = stronger binding | percent of control | 16%
c1ccc(-c2n[nH]cc2-c2ccnc3ccccc23)nc1 | FUN31 (Candida albicans) | kinase binding, MIB/MS competition | Candida albicans lysate | 1 µM | relative to: DMSO | log2 fold change | 0.06
Cn1cc(-c2cc(N3CCCCS3(=O)=O)ccc2N[C@H]2CC[C@H](C)CC2)c2cc[nH]c2c1=O (stereo in doubt) | TRIM33 PHD-bromodomain (human) | bromodomain binding, competition binding | – | 1 µM | relative to: control | remaining binding | 100%
CN(C)CCOc1cc(NC(=O)c2cccc(C(=O)Nc3cc(OCCN(C)C)c4ccccc4n3)n2)nc2ccccc12 | c-kit2 G-quadruplex DNA | FRET melting | – | 1 µM, pH 7.4, added: 60 mM potassium | – | ΔTm | 14.5 ± 0.7 K
Nc1ncc(-c2cc(-c3cnn(CC(F)(F)F)c3)ncc2F)nc1C(=O)NC1CNCC(F)C1 (stereo not shown) | BIKE | KINOMEscan competition binding | – | 1 µM | relative to: DMSO control | remaining binding | 51%
COc1ccc(C(=O)Nc2c(-c3cccs3)nc3ccccn23)cc1 | sigma receptor 1 | binding | – | 10 µM | – | inhibition | < 50%
C=CC(=O)N1[C@@H](c2ccc3c(c2)OCO3)c2[nH]c3ccccc3c2C[C@H]1C(=O)N1CCN(C)CC1 | human cyclin E1 wild type-3xFLAG:CDK2 | co-IP with TMT proteomics, item: TUBA1A | – | concentration not given, Q71U36 | relative to: wild type DMSO | relative co-enrichment | 106%
Cn1c(C=NOCc2ccc3nc(-c4ccccc4)c(Nc4ccc(C(=O)O)cc4)n3c2)ccc1-c1cccc([N+](=O)[O-])c1 | TDP1 | enzyme activity, inhibitor | – | 100 µM, unpurified compound | – | inhibition | 35.2%
O=C1c2sc(-c3ccc(N4CCC(F)C4)nc3F)nc2CCN1c1cccnc1 (stereo not shown) | TDP-43 (human) | CFTR exon splicing | SH-SY5Y | 1 µM, TDP-43-controlled CFTR minigene | – | exon inclusion | 48.7% and 45% and 42.1% and 48.4%

Some of these lines once more:
SMILES | target | test | system | conditions | scale | endpoint | result
C=CC(=O)Nc1cccc(Cn2ncc3cnc(Nc4cnn(CCOC)c4)nc32)c1 | SRPK3 human | binding, KINOMEscan | – | 100 nM | lower = stronger binding | percent of control | 16%
